Measurements of several laboratories.
Every numbered part comes from another study and shows a few of its results, in no order.
Sequence of UniProt Q7L7X3 (whole entry, looked up): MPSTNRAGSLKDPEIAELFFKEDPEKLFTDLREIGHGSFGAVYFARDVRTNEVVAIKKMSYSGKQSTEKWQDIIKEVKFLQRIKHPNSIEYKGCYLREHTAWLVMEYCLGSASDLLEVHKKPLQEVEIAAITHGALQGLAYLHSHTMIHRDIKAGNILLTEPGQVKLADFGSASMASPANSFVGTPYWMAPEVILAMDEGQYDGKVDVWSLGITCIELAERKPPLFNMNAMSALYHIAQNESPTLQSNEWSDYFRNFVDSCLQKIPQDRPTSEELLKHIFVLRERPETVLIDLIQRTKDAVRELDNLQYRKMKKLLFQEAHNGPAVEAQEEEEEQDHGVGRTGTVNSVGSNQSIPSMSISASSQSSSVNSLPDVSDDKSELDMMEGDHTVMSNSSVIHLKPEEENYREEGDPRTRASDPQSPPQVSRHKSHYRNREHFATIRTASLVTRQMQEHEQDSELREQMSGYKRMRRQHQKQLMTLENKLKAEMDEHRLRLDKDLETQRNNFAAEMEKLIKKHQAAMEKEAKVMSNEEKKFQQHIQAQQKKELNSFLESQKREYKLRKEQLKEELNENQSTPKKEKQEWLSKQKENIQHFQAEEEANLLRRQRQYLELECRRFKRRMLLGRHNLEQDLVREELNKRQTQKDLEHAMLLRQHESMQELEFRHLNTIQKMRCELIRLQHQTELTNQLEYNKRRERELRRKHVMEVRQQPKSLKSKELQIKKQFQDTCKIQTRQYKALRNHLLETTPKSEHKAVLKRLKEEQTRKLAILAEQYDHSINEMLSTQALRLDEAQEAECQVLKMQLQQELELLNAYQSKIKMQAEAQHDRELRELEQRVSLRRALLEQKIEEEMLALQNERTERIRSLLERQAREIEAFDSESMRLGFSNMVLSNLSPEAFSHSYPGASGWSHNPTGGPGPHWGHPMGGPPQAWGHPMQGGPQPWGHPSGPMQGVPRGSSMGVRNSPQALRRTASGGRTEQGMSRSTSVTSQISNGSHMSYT
Sequence of UniProt Q08345 (whole entry, looked up): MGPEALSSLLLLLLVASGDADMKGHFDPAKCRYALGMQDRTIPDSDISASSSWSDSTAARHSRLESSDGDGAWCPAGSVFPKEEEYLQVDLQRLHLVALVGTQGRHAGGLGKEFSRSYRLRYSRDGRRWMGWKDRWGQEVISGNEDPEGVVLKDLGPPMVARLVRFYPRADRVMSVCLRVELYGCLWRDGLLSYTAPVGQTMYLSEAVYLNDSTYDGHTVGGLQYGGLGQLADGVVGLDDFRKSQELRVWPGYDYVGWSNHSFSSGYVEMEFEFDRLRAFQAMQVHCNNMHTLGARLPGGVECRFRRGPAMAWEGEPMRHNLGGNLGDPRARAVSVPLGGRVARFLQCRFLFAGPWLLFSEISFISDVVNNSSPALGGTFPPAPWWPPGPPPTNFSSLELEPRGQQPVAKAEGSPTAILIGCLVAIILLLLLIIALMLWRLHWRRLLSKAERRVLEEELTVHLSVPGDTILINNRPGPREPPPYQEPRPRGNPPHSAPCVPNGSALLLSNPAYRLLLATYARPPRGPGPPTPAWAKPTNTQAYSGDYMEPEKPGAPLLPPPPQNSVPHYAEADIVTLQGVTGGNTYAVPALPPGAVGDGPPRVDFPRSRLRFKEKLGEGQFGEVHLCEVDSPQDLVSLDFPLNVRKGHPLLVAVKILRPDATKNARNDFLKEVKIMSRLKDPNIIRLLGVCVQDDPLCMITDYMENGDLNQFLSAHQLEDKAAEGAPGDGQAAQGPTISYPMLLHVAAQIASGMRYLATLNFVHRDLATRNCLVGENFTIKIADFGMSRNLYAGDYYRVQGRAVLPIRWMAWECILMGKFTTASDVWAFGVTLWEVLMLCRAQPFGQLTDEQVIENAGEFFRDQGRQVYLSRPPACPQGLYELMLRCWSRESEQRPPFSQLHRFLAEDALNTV
Sequence of UniProt Q6ZWH5 (whole entry, looked up): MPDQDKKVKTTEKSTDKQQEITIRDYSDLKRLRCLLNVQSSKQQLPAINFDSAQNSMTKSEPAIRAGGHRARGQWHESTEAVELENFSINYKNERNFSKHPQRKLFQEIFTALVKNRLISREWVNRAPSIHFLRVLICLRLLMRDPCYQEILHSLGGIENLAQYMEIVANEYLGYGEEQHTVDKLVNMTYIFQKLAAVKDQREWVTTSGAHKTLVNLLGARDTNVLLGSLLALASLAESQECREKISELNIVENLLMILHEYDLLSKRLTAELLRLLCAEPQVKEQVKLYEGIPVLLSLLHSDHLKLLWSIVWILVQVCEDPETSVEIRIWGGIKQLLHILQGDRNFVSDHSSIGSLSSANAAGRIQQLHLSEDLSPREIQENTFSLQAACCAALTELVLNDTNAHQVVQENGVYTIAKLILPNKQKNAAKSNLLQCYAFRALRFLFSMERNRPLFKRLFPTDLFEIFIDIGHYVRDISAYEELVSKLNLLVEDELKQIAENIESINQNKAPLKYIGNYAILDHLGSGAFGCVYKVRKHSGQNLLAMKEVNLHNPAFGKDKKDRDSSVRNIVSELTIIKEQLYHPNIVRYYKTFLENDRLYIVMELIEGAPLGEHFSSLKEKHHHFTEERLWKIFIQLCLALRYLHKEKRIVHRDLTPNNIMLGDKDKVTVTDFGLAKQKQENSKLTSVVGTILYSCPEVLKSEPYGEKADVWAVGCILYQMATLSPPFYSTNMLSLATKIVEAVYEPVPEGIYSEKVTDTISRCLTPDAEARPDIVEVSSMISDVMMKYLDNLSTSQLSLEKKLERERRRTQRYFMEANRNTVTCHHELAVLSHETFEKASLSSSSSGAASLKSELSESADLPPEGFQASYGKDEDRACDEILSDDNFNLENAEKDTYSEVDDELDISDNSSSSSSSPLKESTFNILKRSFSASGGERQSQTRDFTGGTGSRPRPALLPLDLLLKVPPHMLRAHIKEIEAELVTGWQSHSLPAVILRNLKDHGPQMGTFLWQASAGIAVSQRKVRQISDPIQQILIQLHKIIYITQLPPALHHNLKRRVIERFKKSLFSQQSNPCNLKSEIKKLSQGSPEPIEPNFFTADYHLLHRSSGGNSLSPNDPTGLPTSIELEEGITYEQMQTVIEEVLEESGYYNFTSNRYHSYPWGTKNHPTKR
Sequence of UniProt Q9Y4K4 (whole entry, looked up): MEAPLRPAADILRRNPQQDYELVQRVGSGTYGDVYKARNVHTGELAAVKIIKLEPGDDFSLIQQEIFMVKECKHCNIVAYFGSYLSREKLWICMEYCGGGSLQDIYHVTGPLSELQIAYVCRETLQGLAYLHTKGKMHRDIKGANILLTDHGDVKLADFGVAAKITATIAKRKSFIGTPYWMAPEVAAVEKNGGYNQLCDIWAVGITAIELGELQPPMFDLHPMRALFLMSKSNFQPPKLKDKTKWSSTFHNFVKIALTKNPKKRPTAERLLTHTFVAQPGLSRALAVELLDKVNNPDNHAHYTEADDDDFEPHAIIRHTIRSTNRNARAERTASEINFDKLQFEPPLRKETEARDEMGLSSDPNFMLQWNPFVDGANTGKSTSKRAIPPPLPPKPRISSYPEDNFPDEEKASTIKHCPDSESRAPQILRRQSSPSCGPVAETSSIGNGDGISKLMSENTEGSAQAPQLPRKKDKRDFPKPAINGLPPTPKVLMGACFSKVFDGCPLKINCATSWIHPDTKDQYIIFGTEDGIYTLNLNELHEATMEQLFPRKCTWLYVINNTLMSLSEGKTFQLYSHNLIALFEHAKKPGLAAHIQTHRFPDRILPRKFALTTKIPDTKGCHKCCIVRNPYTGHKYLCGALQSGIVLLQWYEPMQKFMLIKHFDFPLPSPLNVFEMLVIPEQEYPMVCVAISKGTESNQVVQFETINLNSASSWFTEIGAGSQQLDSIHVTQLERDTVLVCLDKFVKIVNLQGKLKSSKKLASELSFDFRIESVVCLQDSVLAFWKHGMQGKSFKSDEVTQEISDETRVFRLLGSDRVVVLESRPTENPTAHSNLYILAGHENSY
Sequence of UniProt Q15349 (whole entry, looked up): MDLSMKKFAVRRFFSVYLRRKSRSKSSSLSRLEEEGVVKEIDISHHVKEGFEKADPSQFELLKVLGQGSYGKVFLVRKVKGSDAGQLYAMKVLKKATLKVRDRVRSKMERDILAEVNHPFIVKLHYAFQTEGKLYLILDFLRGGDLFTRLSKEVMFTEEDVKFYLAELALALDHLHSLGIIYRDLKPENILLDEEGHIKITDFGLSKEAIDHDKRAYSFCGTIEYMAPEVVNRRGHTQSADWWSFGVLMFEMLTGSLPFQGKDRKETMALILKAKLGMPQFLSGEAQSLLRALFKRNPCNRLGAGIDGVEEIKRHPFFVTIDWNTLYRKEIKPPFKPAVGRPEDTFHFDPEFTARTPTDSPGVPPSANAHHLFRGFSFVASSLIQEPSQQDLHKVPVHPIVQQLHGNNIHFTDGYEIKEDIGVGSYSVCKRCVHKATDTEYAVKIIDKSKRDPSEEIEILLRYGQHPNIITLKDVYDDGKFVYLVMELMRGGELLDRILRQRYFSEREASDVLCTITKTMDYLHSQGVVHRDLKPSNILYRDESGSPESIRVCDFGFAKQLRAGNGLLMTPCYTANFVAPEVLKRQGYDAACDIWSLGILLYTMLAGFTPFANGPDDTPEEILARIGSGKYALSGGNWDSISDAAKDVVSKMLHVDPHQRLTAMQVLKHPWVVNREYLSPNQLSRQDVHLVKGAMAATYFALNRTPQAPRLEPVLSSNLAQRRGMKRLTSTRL

Sample 1
Target: FOXO3, forkhead domain (mouse, UniProt Q9WVH4, residues 31-263)
Sequence of UniProt Q9WVH4 (31-263, looked up): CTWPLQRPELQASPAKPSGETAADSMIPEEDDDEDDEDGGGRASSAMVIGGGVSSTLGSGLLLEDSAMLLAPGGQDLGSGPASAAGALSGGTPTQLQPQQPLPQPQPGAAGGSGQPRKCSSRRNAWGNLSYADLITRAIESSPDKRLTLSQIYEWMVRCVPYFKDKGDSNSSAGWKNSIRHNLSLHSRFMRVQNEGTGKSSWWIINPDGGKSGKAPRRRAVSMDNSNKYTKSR
Technique: protein-binding microarray
Molecule type: hairpin DNA
Sample: in vitro
Concentration: not given
Notes: whole hairpin DNA, median over replicate spots
Reference: not given
Reading: higher = stronger binding
Strand	median fluorescence
GAGGCCATGTAAGCAACGCCTCCTGGCGTTGCTTACATGGCCTCACACTC	4360 a.u.
GAGGCCATGTCACCAACGCCTCCTGGCGTTGGTGACATGGCCTCACACTC	4400 a.u.
GAGGCCCGGCAAACAACGCCTCCTGGCGTTGTTTGCCGGGCCTCACACTC (5mC at 7 37)	5470 a.u.
GAGGCCATGGAACCAACGCCTCCTGGCGTTGGTTCCATGGCCTCACACTC (5mC at 35)	4210 a.u.
GAGGCCGTGTAAACAACGCCTCCTGGCGTTGTTTACACGGCCTCACACTC (5mC at 38)	5490 a.u.
GAGGCCCGGTAAACAACGCCTCCTGGCGTTGTTTACCGGGCCTCACACTC	6380 a.u.
GAGGCCATGCAAAAAACGCCTCCTGGCGTTTTTTGCATGGCCTCACACTC	3990 a.u.
GAGGCCATGCAAACAACGCCTCCTGGCGTTGTTTGCATGGCCTCACACTC (5mC at 17)	4970 a.u.

Sample 2
SMILES: C[C@@H]1CN(c2cc(-c3nn(C)c4ccc(OC5(C)CC5)cc34)ncn2)C[C@H](C)O1
Effect on: cell-free assay
Technique: competition with immobilised ligand
Concentration: 1 µM
target	remaining binding [%]
Tyrosine-protein kinase ABL1, phosphorylated (ABL1, Homo sapiens, UniProt P00519, Q252H)	58
SRMS (Homo sapiens, UniProt Q9H3Y6)	83
Ribosomal protein S6 kinase alpha-2, C-terminal kinase domain (RPS6KA2, Homo sapiens, UniProt Q15349)	100
MAP4K5 (Homo sapiens, UniProt Q9Y4K4)	100
PRKCD (Homo sapiens, UniProt Q05655)	100
STK4 (Homo sapiens, UniProt Q13043)	100
NEK11 (Homo sapiens, UniProt Q8NG66)	58
NEK10 (Homo sapiens, UniProt Q6ZWH5)	89
DDR1 (Homo sapiens, UniProt Q08345)	68
CAMK2A (Homo sapiens, UniProt Q9UQM7)	98
YES1 (Homo sapiens, UniProt P07947)	98
TAOK1 (Homo sapiens, UniProt Q7L7X3)	82
EPHB1 (Homo sapiens, UniProt P54762)	99

Sample 3
Target: UBE2G2 UBC core domain (UniProt P60604)
Technique: yeast two-hybrid
Sample: yeast
Notes: mostly zero background
Reference: not given
Reading: higher = stronger interaction
B1: TRIM54 RING domain (UniProt Q9BYV2); chain SMDNLEKQLICPICLEMFSKPVVILPCQHNLCRKCANDVFQASNPLWQSRGSTTVSSGGRFRCPSCRHEVVLDRHGV
B2: TRIM26 RING domain (UniProt Q12899); chain PLRSLEEEVTCSICLDYLRDPVTIDCGHVFCRSCTTDVRPISGSRPVCPLCKKPFKKENIRP
B3: RNF183 RING domain (UniProt Q96D59); chain EQQGRELEAECPVCWNPFNNTFHTPKMLDCCHSFCVECLAHLSLVTPARRRLLCPLCRQPTVLASGQP
B4: RNF122 RING domain (UniProt Q9H9V4); chain AKKLQLYGQTCAVCLEDFKGKDELGVLPCQHAFHRKCLVKWLEVRCVCPMCNKPIASPSEAT
B5: MKRN2 RING domain (UniProt Q9H000); chain FAFQASQDKVCSICMEVILEKASASERRFGILSNCNHTYCLSCIRQWRCAKQFENPIIKSCPECRVISEFVIPSV
B6: TRIM37 RING domain (UniProt O94972); chain SVESIAEVFRCFICMEKLRDARLCPHCSKLCCFSCIRRWLTEQRAQCPHCRAPLQLRELVN
Residues (chain): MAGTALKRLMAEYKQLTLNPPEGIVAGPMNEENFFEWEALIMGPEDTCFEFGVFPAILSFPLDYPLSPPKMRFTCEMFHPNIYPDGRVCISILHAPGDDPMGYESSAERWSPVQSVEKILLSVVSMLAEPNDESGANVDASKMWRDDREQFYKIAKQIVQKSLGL
Molecule	lacZ reporter activity
B1 (TRIM54 RING domain)	0
QVQSRTKIEECVVCSDKKAAVLFQPCGHMCACENCANLMKKCVQCRAVVERRVPFI (MIB1 RING domain (UniProt Q86YT6))	0
B2 (TRIM26 RING domain)	0
B3 (RNF183 RING domain)	0
B4 (RNF122 RING domain)	0
YPEEVDDDLICHICLQALLDPLDTPCGHTYCTLCLTNFLVEKDFCPMDRKPLVLQHCKK (LNX1 RING domain (UniProt Q8TBB1))	0
B5 (MKRN2 RING domain)	0
B6 (TRIM37 RING domain)	0

Single results of other studies
Structure (SMILES)	target or system	assay	test system	conditions	scale	endpoint	value
CS(=O)(=O)c1ccc(-c2cc(Br)sc2-c2ccc(F)cc2)cc1	Sarcocystis neurona	parasite growth	–	10 µM, 96 h	reference: untreated	log2 fold change	-0.25
Cc1cc(C(=O)Nc2nnc(Cc3cccs3)o2)n(C)n1	–	–	mouse, microsomes or S9	2 µM, 0.5 h	–	remaining compound	81.3%
CC(C(=O)O)c1ccc(-c2ccccc2)c(F)c1 (centres unmarked)	Sarcocystis neurona	parasite growth	–	10 µM, 96 h	reference: untreated	log2 fold change	-0.07

A few entries again (sample 1):
Strand	median fluorescence
GAGGCCGTGTAAACAACGCCTCCTGGCGTTGTTTACACGGCCTCACACTC (5mC at 38)	5490 a.u.
GAGGCCATGTAAGCAACGCCTCCTGGCGTTGCTTACATGGCCTCACACTC	4360 a.u.
